Measurements from different studies.
Protocols differ between the studies behind these lines. ± gives the spread as reported.
Technique: steady-state kinetics
B1: sacB Y439F (Priestia megaterium, UniProt D5DC07); chain KGNDSKDFNNSYGISHITRDNMVKIPQQQNSDQFKVPAFDESTIKNIASAKGKNASGNTIDLDVWDSWPLQNADGTVATYHGYQIVFALAGDPKDSNDTSVYLFYKKAGDKSIDSWKNAGRVFKDSDKFVPNDPHLKNQTQEWSGSGTLTKDGKVRLFYTDYSGKQYGKQTLTTAQVNMSQPNDNTLKVDGVEDYKSIFDGDGKIYQTVQQFIDEGGYDTGDNHTLRDPHYIEDNGHKYLVFEANTGTEDGYQGEDSLYNRAYYGGNNPFFQSEKKKLLEGSNKEKASLANGALGIIELNDDYTLKKVMKPLITSNTVTDEIERANIFKKDGKWYLFTDSRGSKMTIDGIGQDDVYMLGYVSNTLTGKYKPLNDTGLVLHMDLDPNDKTFTYSHFAVPQTKGDNVVITSFMTNRGFYEDNHSTFAPSFLVNIDGSKTSVVKDRVLEQGQLTVDED
B2: BshA S17A (Bacillus subtilis, UniProt P42982); chain MRKLKIGITCYPSVGGAGIIATELGKQLAEKGHEIHFITSSIPFRLNTYHPNIHFHEVEVNQYAVFKYPPYDLTLASKIAEVAERENLDIIHAHYALPHAVCAYLAKQMLKRNIGIVTTLHGTDITVLGYDPSLKDLIRFAIESSDRVTAVSSALAAETYDLIKPEKKIETIYNFIDERVYLKKNTAAIKEKHGILPDEKVVIHVSNFRKVKRVQDVIRVFRNIAGKTKAKLLLVGDGPEKSTACELIRKYGLEDQVLMLGNQDRVEDLYSISDLKLLLSEKESFGLVLLEAMACGVPCIGTNIGGIPEVIKNNVSGFLVDVGDVTAATARAMSILEDEQLSNRFTKAAIEMLENEFSSKKIVSQYEQIYADLAEPE
B3: bga E532Q (Niallia circulans, UniProt E5RWQ2); chain GNSVSYDGERRVNFNENWRFQRETNGSIAGAQNPGFDDSSWRKLNLPHDWSIELDFNKNSLATHEGGYLDGGIGWYRKTFTIPESMKGKRISLDFDGVYMNSTTYLNGEVLGTYPFGYNAFSYDISDKLYKDGRANVLVVKVNNTQPSSRWYSGSGIYRNVYLTVTDPIHVARYGTFVTTPNLEKSIKEDRADVNIKTKISNDAAEAKQVKIKSTIYDGAGNTVQTVETEEKTAAAGTVTPFEQNTVIKQPKLWSIDKPYRYNLVTEVIVGGQTVDTYETKFGVRYFKFDENEGFSLNGEYMKLHGVSMHHDLGALGAATNARGVERQMQIMKDMGVNAIRVTHNPASPELLEAANKLGLFIIEEAFDSWAQSKKPYDYGRFFNAWAEHDIKEMVDRGKNEPAIIMWSIGNEIYDTTNAAGVETARNLVGWVKEIDTTRPTTIGEDKTRGDKVNVTPINSYIKEIFNIVDVVGLNYSENNYDGYHKQNPSWKLYGSQTSSATRSRGVYTHPYQYNQSTKYADLQQSSYDNDYVGWGRTAEDAWKYDRDLKHIAGQFIWTGFDYIGEPTPYYNSYPAKSSYFGAVDTAGFPKDIFYYYQSQWKKEPMVHLLPHWNWKEGEKVRVLAYTNASKVELVLNGESLGEKNYDNKQTSWGAPYKETKDGKTYLEWAVPFKPGKLEAVAKDENGKVIARDQVVTAGEPASVRLTADRKVVKADGTDLSFITADIVDSKGIVVPDADHLITFNVTGQGELAGVDNGNASSVERYKDNKRKAFSGKALAIVQSSKLSGKITVHASVAGLSSDSTSVFTVTP
B4: UCK2 H117Y (Homo sapiens, UniProt Q9BZX2); chain MAGDSEQTLQNHQQPNGGEPFLIGVSGGTASGKSSVCAKIVQLLGQNEVDYRQKQVVILSQDSFYRVLTSEQKAKALKGQFNFDHPDAFDNELILKTLKEITEGKTVQIPVYDFVSYSRKEETVTVYPADVVLFEGILAFYSQEVRDLFQMKLFVDTDADTRLSRRVLRDISERGRDLEQILSQYITFVKPAFEEFCLPTKKYADVIIPRGADNLVAINLIVQHIQDILNGGPSKRQTNGCLNGYTPSRKRQASESSSRPH
B5: enzyme (Coprinopsis marcescibilis, UniProt A0A5C3KD26); chain FPQYGSLGGLEARQEEEATRGSTSTSGPRSRVPPPPPAPPRFTGAKLVDDRDHPWRPLRNGDIRGPCPGLNTLASHGYLPRDGVASPSDIIKAVQEGFNMETQTARFATYSAHILEGNLVTDLLSIGGKTSRTGPNPPPPATVAGISNHGSFEGDASLTRIDAFFGNHVAFNQPLFDQFVDFSNRFGNGFYNYTVGGELRFHRIQQSIETNPQFRIRGFRHFTAYAEAAFTANLFVDGRKTGADAHQLDMDSARSFFRDMRFPRGFFRPSSPTAGEGADIIFAAHPTQPGTNVGAVNNFVVDTSMGGLTDPCTFYVQFVNTTVRALYPNPTGVLRRNLIINLGFLYDSFAPPDCPQVFPYGQN
B6: TBM M536C (Drosophila melanogaster, UniProt Q86B61); chain TFMPVMLLLLMATLLTRPLSAFSNRLSDTKLHEIYLDDKEIKLSWMVDWYKQEVLFHLQNAFNEQHRWFYLGFSKRGGLADADICFFENQNGFFNAVTDTYTSPDGQWVRRDYQQDCEVFKMDEFTLAFRRKFDTCDPLDLRLHEGTMYVVWARGETELALEDHQFALPNVTAPHEAGVKMLQLLRADKILIPETELDHMEITLQEAPIPSQETTYWCHVQRLEGNLRRRHHIVQFEPLIRTPGIVHHMEVFHCEAGEHEEIPLYNGDCEQLPPRAKICSKVMVLWAMGAGTFTYPPEAGLPIGGPGFNPYVRLEVHFNNPEKQSGLVDNSGFRIKMSKTLRQYDAAVMELGLEYTDKMAIPPGQTAFPLSGYCVADCTRAALPATGIIIFGSQLHTHLRGVRVLTRHFRGEQELREVNRDDYYSNHFQEMRTLHYKPRVLPGDALVTTCYYNTKDDKTAALGGFSISDECCVNYIHYYPATKLEVCKSSVSEETLENYFIYMKRTEHQHGVHLNGARSSNYRSIEWTQPRIDQLYTMYMQEPLSMQCNRSDGTRFEGRSSWEGVAATPVQIRIPIHRKLCPNYNPLWLKPLEKGDCDLLGECIY
B7: Mj-MAT W387F/Y170W (Methanocaldococcus jannaschii, UniProt Q58605); chain MRNIIVKKLDVEPIEERPTEIVERKGLGHPDSICDGIAESVSRALCKMYMEKFGTILHHNTDQVELVGGHAYPKFGGGVMVSPIYILLSGRATMEILDKEKNEVIKLPVGTTAVKAAKEYLKKVLRNVDVDKDVIIDCRIGQGSMDLVDVFERQKNEVPLANDTSFGVGWAPLSTTERLVLETERFLNSDELKNEIPAVGEDIKVMGLREGKKITLTIAMAVVDRYVKNIEEYKEVIEKVRKKVEDLAKKIADGYEVEIHINTADDYERESVYLTVTGTSAEMGDDGSVGRGNRVNGLITPFRPMSMEAASGKNPVNHVGKIYNILANLIANDIAKLEGVKECYVRILSQIGKPINEPKALDIEIITEDSYDIKDIEPKAKEIANKFLDNIMEVQKMIVEGKVTTF
B8: MCAT R178Q (Homo sapiens, UniProt Q8IVS2); chain GQGSQVVGMGRGLLNYPRVRELYAAARRVLGYDLLELSLHGPQETLDRTVHCQPAIFVASLAAVEKLHHLQPSVIENCVAAAGFSVGEFAALVFAGAMEFAEGLYAVKIQAEAMQEASEAVPSGMLSVLGQPQSKFNFACLEAREHCKSLGIENPVCEVSNYLFPDCRVISGHQEALRFLQKNSSKFHFRRTRMLPVSGAFHTRLMEPAVEPLTQALKAVDIKKPLVSVYSNVHAHRYRHPGHIHKLLAQQLVSPVKWEQTMHAIYERKKGRGFPQTFEVGPGRQLGAILKSCNMQAWKSYSAVDVL
B9: enzyme (Arabidopsis thaliana, UniProt Q9LTH2); chain MEEKQVKETRIVLVPVPAQGHVTPMMQLGKALHSKGFSITVVLTQSNRVSSSKDFSDFHFLTIPGSLTESDLQNLGPQKFVLKLNQICEASFKQCIGQLLHEQCNNDIACVVYDEYMYFSHAAVKEFQLPSVVFSTTSATAFVCRSVLSRVNAESFLIDMKDPETQDKVFPGLHPLRYKDLPTSVFGPIESTLKVYSETVNTRTASAVIINSASCLESSSLARLQQQLQVPVYPIGPLHITASAPSSLLEEDRSCVEWLNKQKSNSVIYISLGSLALMDTKDMLEMAWGLSNSNQPFLWVVRPGSIPGSEWTESLPEEFNRLVSERGYIVKWAPQMEVLRHPAVGGFWSHCGWNSTVESIGEGVPMICRPFTGDQKVNARYLERVWRIGVQLEGDLDKETVERAVEWLLVDEEGAEMRKRAIDLKEKIETSVRSGGSSCSSLDDFVNSM
Chain of UniProt Q92UV7 (whole entry, looked up): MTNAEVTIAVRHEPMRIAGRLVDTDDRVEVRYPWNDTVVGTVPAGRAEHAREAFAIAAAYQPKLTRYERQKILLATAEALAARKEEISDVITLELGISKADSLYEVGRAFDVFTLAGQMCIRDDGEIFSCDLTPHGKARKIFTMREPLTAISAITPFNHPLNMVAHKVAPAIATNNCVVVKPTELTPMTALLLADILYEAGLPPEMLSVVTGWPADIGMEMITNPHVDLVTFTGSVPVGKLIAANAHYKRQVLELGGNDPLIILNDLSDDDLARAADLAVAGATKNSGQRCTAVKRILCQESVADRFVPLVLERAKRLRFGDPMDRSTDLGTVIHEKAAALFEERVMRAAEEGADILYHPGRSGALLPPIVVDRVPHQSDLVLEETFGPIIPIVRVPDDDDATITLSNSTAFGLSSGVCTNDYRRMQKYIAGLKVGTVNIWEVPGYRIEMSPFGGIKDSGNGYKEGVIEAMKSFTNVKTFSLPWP
Chain of UniProt P38999 (whole entry, looked up): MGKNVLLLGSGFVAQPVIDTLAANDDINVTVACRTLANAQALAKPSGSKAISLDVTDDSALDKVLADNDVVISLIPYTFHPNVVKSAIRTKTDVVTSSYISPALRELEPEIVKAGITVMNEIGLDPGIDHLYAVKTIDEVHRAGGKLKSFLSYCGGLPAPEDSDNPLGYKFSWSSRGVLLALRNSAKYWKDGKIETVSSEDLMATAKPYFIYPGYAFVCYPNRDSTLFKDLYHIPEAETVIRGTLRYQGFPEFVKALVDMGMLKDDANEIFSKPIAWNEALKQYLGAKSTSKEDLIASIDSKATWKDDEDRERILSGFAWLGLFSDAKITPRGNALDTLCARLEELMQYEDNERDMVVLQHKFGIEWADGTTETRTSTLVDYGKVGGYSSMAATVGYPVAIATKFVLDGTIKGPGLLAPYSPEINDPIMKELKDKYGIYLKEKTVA
Chain of UniProt Q6PHW0 (whole entry, looked up): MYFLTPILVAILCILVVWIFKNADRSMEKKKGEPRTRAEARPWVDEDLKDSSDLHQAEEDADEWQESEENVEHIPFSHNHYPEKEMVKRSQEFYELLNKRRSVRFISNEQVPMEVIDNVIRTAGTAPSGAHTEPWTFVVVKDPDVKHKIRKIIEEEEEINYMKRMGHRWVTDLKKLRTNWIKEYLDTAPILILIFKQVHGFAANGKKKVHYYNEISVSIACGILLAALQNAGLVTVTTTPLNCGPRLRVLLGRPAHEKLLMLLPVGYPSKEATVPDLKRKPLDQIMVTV
Chain of UniProt Q8QZR1 (whole entry, looked up): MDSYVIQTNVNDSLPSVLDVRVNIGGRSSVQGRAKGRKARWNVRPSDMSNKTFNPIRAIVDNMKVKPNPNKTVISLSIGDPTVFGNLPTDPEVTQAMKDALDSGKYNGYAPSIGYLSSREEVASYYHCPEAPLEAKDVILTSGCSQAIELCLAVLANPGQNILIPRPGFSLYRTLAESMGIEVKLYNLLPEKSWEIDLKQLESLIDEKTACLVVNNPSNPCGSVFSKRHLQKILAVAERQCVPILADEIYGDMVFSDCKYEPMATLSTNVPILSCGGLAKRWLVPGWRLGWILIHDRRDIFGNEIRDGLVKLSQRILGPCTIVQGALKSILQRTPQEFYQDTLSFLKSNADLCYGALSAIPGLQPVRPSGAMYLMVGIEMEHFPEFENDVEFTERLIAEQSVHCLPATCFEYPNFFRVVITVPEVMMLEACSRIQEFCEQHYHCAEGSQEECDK
Chain of UniProt Q4G0N4 (whole entry, looked up): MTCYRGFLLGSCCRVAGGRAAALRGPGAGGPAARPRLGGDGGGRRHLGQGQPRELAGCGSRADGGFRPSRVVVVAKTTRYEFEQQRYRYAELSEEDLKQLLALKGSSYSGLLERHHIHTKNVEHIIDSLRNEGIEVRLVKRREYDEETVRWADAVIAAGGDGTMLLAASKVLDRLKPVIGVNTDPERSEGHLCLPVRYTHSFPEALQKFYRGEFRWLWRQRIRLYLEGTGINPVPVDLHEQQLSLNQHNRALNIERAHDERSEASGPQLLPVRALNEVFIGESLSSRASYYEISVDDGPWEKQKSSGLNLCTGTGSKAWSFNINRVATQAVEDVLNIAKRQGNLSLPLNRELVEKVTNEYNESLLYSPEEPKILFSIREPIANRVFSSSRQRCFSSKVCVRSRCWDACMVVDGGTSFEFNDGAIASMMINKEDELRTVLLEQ
Chain of UniProt P45370 (whole entry, looked up): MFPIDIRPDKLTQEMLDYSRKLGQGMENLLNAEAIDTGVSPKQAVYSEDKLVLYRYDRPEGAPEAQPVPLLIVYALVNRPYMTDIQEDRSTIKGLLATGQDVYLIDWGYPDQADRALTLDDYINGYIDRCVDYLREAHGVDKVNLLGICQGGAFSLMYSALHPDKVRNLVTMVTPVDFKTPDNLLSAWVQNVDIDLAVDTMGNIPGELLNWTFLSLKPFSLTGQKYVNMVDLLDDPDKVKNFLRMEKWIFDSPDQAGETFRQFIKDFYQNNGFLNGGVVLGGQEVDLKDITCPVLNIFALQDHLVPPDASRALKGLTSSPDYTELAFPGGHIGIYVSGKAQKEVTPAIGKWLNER

| Substance | substrate | pH | temperature | notes | together with | kcat |
| --- | --- | --- | --- | --- | --- | --- |
| B1 (sacB Y439F) | OC[C@H]1O[C@@](CO)(O[C@H]2O[C@H](CO)[C@@H](O)[C@H](O)[C@H]2O)[C@@H](O)[C@@H]1O | pH 6.6 | – | – | – | 184 ± 7.6 s⁻¹ |
| B2 (BshA S17A) | CC(=O)N[C@H]1[C@@H](OP(=O)(O)OP(=O)(O)OC[C@H]2O[C@@H](n3ccc(=O)[nH]c3=O)[C@H](O)[C@@H]2O)O[C@H](CO)[C@@H](O)[C@@H]1O | pH 7.5 | 21 °C | – | malate 0–25 mM | 2.5 ± 0.1 s⁻¹ |
| NADK2 (Homo sapiens, UniProt Q4G0N4) | NC(=O)c1ccc[n+]([C@@H]2O[C@H](COP(=O)(O)OP(=O)(O)OC[C@H]3O[C@@H](n4cnc5c(N)ncnc54)[C@H](O)[C@@H]3O)[C@@H](O)[C@H]2O)c1 | – | 37 °C | – | – | 1.4 s⁻¹ |
| IYD (Homo sapiens, UniProt Q6PHW0) | Cc1cc(C[C@H](N)C(=O)O)cc(I)c1O | pH 7.4 | 25 °C | – | sodium dithionite 0.5% | 0.76 ± 0.05 s⁻¹ |
| Tat (Mus musculus, UniProt Q8QZR1) | O=C(O)C(=O)Cc1ccccc1 | pH 7 | 38 °C | – | PLP | 2.67 ± 0.167 s⁻¹ |
| protein (Allochromatium vinosum, UniProt P45370) | C[C@@H](O)CC(=O)SCCNC(=O)CCNC(=O)[C@H](O)C(C)(C)COP(=O)(O)OP(=O)(O)OC[C@H]1O[C@@H](n2cnc3c(N)ncnc32)[C@H](O)[C@@H]1OP(=O)(O)O | pH 7.8 | 30 °C | – | – | 508 s⁻¹ |
| enzyme (Sinorhizobium meliloti, UniProt Q92UV7) | NC(=O)c1ccc[n+]([C@@H]2O[C@H](COP(=O)(O)OP(=O)(O)OC[C@H]3O[C@@H](n4cnc5c(N)ncnc54)[C@H](O)[C@@H]3O)[C@@H](O)[C@H]2O)c1 | pH 7.5 | 30 °C | cofactor varied | – | 2.2 ± 0.1 s⁻¹ |
| Saccharopine reductase (Saccharomyces cerevisiae, UniProt P38999) | NC(=O)c1ccc[n+]([C@@H]2O[C@H](COP(=O)(O)OP(=O)(O)OC[C@H]3O[C@@H](n4cnc5c(N)ncnc54)[C@H](OP(=O)(O)O)[C@@H]3O)[C@@H](O)[C@H]2O)c1 | pH 9 | 25 °C | – | saccharopine | 13 ± 1 s⁻¹ |
| B3 (bga E532Q) | O=[N+]([O-])c1ccccc1O[C@@H]1O[C@H](CO)[C@H](O)[C@H](O)[C@H]1O | pH 6 | 40 °C | low-substrate phase, biphasic | – | 0.2 ± 0.01 s⁻¹ |
| B4 (UCK2 H117Y) | Nc1ccn([C@@H]2O[C@H](CO)[C@@H](O)[C@H]2O)c(=O)n1 | pH 7.2 | 25 °C | KCl 100 mM | ATP 100–200 µM | 6.4 ± 0.7 s⁻¹ |
| B5 (enzyme) | O=[N+]([O-])c1ccc2c(c1)OCO2 | – | – | – | – | 146 ± 1 s⁻¹ |
| B6 (TBM M536C) | NCCc1ccc(O)cc1 | pH 6 | 35 °C | KCl 0.1 M, apparent Km, apparent | ascorbate 50 mM, CuSO4 15 µM | 0.45 s⁻¹ |
| enzyme (Pseudomonas putida, UniProt Q88P31) | NC(=O)c1ccc[n+]([C@@H]2O[C@H](COP(=O)(O)OP(=O)(O)OC[C@H]3O[C@@H](n4cnc5c(N)ncnc54)[C@H](O)[C@@H]3O)[C@@H](O)[C@H]2O)c1 | pH 8 | 30 °C | – | – | 277 ± 2 s⁻¹ |
| B7 (Mj-MAT W387F/Y170W) | CSCC[C@H](N)C(=O)O | – | 55 °C | – | ATP 2.5 mM, methionine 0.05-1 mM | 2.39 ± 0.03 s⁻¹ |
| B8 (MCAT R178Q) | CC(=O)SCCNC(=O)CCNC(=O)[C@H](O)C(C)(C)COP(=O)(O)OP(=O)(O)OC[C@H]1O[C@@H](n2cnc3c(N)ncnc32)[C@H](O)[C@@H]1OP(=O)(O)O | pH 6.8 | 20 °C | labelled substrate | holo-ACP 20 µM | 0.00617 ± 0.0005 s⁻¹ |
| enzyme (Thermobifida fusca, UniProt Q47RK4) | CC(C)(COP(=O)(O)OP(=O)(O)OC[C@H]1O[C@@H](n2cnc3c(N)ncnc32)[C@H](O)[C@@H]1OP(=O)(O)O)[C@@H](O)C(=O)NCCC(=O)NCCSC(=O)CC(=O)O | pH 7.4 | 37 °C | – | – | 0.00317 ± 8e-05 s⁻¹ |
| B9 (enzyme) | O=c1ccn([C@@H]2O[C@H](CO[P@@](=O)(O)O[P@@](=O)(O)O[C@H]3O[C@H](CO)[C@@H](O)[C@H](O)[C@H]3O)[C@@H](O)[C@H]2O)c(=O)[nH]1 | pH 7.5 | 25 °C | – | – | 0.0107 s⁻¹ |

Some of these lines once more:
| Substance | substrate | pH | temperature | notes | together with | kcat |
| --- | --- | --- | --- | --- | --- | --- |
| B1 (sacB Y439F) | OC[C@H]1O[C@@](CO)(O[C@H]2O[C@H](CO)[C@@H](O)[C@H](O)[C@H]2O)[C@@H](O)[C@@H]1O | pH 6.6 | – | – | – | 184 ± 7.6 s⁻¹ |
| B9 (enzyme) | O=c1ccn([C@@H]2O[C@H](CO[P@@](=O)(O)O[P@@](=O)(O)O[C@H]3O[C@H](CO)[C@@H](O)[C@H](O)[C@H]3O)[C@@H](O)[C@H]2O)c(=O)[nH]1 | pH 7.5 | 25 °C | – | – | 0.0107 s⁻¹ |
| B8 (MCAT R178Q) | CC(=O)SCCNC(=O)CCNC(=O)[C@H](O)C(C)(C)COP(=O)(O)OP(=O)(O)OC[C@H]1O[C@@H](n2cnc3c(N)ncnc32)[C@H](O)[C@@H]1OP(=O)(O)O | pH 6.8 | 20 °C | labelled substrate | holo-ACP 20 µM | 0.00617 ± 0.0005 s⁻¹ |
